Assay results collected from several papers.
A part holds a random share of what one study measured. Changes are numbered by the printed parent chain.

Series 1
Target: Prothrombin, mature alpha-thrombin (F2, Homo sapiens, UniProt P00734)
Method: aptamer microarray, sandwich
Molecule type: DNA with 2'F-ANA
Medium: in vitro
Tested at: 200 nM
Notes: whole 15-mer aptamer, many near background
Added: Cy3 exosite-II aptamer, 400 nM
Reading: higher = stronger binding
Strand: GGTTGGTGTGGTTGG
Modification	mean fluorescence intensity [a.u.]
2'F-ANA at 2 3 4 5 6 7 9 12	219
2'F-ANA at 5 6 7 8 9 10 11 15	55.9
2'F-ANA at 1 3 4 7 8 9 11 12 15	363
2'F-ANA at 1 2 5 7 8 9 11 13 14	44.8
2'F-ANA at 1 2 3 4 5 6 8 14	46
2'F-ANA at 1 3 6 7 8 10 11 12	105
2'F-ANA at 1 2 3 6 8 10 12 15	88
2'F-ANA at 2 4 6 7 8 9 11 12 13 15	247
2'F-ANA at 1 3 4 5 9 10 11 12 14	48.5
2'F-ANA at 1 2 4 8 9 10 11 13 15	96.3
2'F-ANA at 6 7 8 9 10 11 12 13	152
2'F-ANA at 5 7 8 9 10 11 12	54.8
2'F-ANA at 2 3 9 10 11 15	458
2'F-ANA at 1 3 4 5 9 10 11 12 13	46
2'F-ANA at 1 3 6 10 11 15	72.3
2'F-ANA at 4 5 8 10 14	41.9
2'F-ANA at 2 3 5 6 8 9 10 11 12 15	56
2'F-ANA at 1 2 3 4 5 6 9 11 12 14 15	70.3
2'F-ANA at 2 5 7 12 13 14 15	66.8
2'F-ANA at 7 11 12	791
2'F-ANA at 1 2 4 5 9 11 13 15	182
2'F-ANA at 1 2 3 4 5 8 10 11 12 15	92.8

Series 2
Target: RNA binding protein fox-1 homolog 2, RRM domain, GST-SBP tag (RBFOX2, Homo sapiens, UniProt O43251-10, residues 100-194)
Method: RNA Bind-n-Seq
Molecule type: RNA
Medium: in vitro
Tested at: 365 nM
Notes: natural RNA segment, single round, ends assumed
Relative to: no-protein control
Reading: higher = stronger binding
All sequences stand within: GGGAGUUCUACAGUCCGACGAUC … UGGAAUUCUCGGGUGCCAA
Strand	RBNS enrichment (R)
GAUUAUGUGCUUGACCACUGCCUUUUAAAACUUUAAAUUAAAUAAAACAUUGGGGAUGAUUCAAUUUAGCCAUCUGUGUGUGUGUUUCUUUAUGGAUACGUGGUCUAAGG	0.873
GACUUUUUCCCGGAGAUGGGGGUGGGGGAUGUUUAGGUCCCACUAUGAUGCAAGCAGCCAUGACCCACAUUCUGUUGCUGCCUCGUUUAUGCAGAAGGUCUGAUUCCAGA	0.453
GGAACAAAGCAGAGACAUUUAUUCACCUUGACUCCCCAGGGAAGCCUUCCACACUAGAUGGUCCAAUCCUACUGGAUGGUCGGUUGCUGCUCACAUCUGCCUGCAAGUCU	0.542
GGGUUGCCUUGGCAGCAGAGGCUCCUCUGAUGGCUGACAUCAGUCACUGCGUCUGGGCCUGAGACGUGCAUGGAGGGCUGUAAAGCCACGGAUUCCCCUCGCUGGAGAGG	8.24
AAUGUAAAGGGGACAGCUCAGGGUUGUUUUGGAGCCUGUUUGACUUUGUAAUCUCUGCCUGUGAUUUUCUUUUCUAAAUGACGACUCCGUGUAACCACCUGGACUAAGUU	2.03
GCCACUUAAUUAAGAUAAAAAUGCUUAGUUAUUUAUGUUAGUAUCUAGCUUUUAAAGAACUACAUGUGUCUUUAAAAGUAUUUAUUGUGCAAAUGUACUAUAGCAGUUCA	0.455
GCAAAGUGGGAAGCCACGGCAGCCUCCGGCCUCCCCUGCUGAAUGCUCUAUACAAAUUCAGCACCUUUGACUGGUUUUGAGUGUGCAUUUUCUUUUAGUGAUACUGUUAC	0.37
GGGUCGCCUGCUACCCGACUGAUGUCCGUUGAGGGCUGCAGUCAGAGGCCCUGGACAGAAGCUCCAGAUAGGCCCCUAGAACAUGAAGCAGUUUGCUCUGUGCGUCCACG	0.386

Series 3
Target: CCNE1, cyclin fold, Cln2 fusion (human)
Method: yeast growth competition, sequencing
Medium: yeast
Notes: weak parent motif
Relative to: not given
Reading: higher = stronger binding
Starting sequence: HIRA docking peptide (human); SLSKRKLELEVET
Change	normalised enrichment score
L2A	-0.167
R5A L7A	0.0965
L9F	0.692
L7A	-0.555
V11A	-0.688
R5K	0.173
E12A	-0.541
E8A	0.428
E10A	-0.0117
K6A	0.867

Series 4
Target: RING finger protein unkempt homolog, zinc fingers 1-6, SBP tag (UNK, Homo sapiens, UniProt Q9C0B0, residues 30-357)
Chain of UniProt Q9C0B0 (30-357, looked up): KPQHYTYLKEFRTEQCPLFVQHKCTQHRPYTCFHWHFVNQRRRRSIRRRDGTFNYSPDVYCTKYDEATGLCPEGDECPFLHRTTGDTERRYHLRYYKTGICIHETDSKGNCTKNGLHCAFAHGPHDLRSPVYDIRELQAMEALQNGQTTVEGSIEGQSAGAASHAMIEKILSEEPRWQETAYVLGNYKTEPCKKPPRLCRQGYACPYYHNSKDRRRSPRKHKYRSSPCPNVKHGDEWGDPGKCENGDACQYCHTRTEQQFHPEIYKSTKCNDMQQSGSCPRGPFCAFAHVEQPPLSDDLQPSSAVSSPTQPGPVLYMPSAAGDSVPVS
Method: RNA Bind-n-Seq
Molecule type: RNA
Medium: in vitro
Tested at: 100 nM
Notes: RNA with constant flanks, vertebrate orthologous sites, ends assumed
Relative to: input RNA pool
Reading: higher = stronger binding
All sequences stand within: GGGAGUUCUACAGUCCGACGAUC … CAACAGAGGAUUGAGCAUCA
Strand	bound/input enrichment [ratio]
AGCUUCUGGCGACAUUUGGCCUGGCCUUUCAGCGUAUGAUAACAGUCCAAGGUCACCCCACAGUCCUUCUAUUGCCACCCCGCCUAGUCAGAGUUCAUCUUGCUCUGAUGCCCCUUUGCU	0.566
UUCACCACUCCUGGGUGCGUGACUGAGGGUGAAGCAUCCACCAGCACUUCAAGGGGUCCAUAGUAUUUUCUUUUGCUGCCUCAAAGUCCCCAAAGCCUUCAAGCAGAAGUGGCAGUAGAU	0.671
AUCUCGUGCCUCUCCCCACGGGGAGUGGGGGAAGCUGAAUGACCCUCAGCUGUUCCAAUCCAGUGGGUUUUUUUAAUUUGUUUUUUUGAUUAAAAAAUUACUGUAUUUAUUAUGACAAUG	0.292
AAACCCCGAUUUUAGAUGUGAUAUCUAGCUUUCAUUCCAGUUUGUUUUGUCUUUUCUUGUUUAGAUACCAACCUUUUAAAUUCUUGCAUUUUAGUAAGAAAGCUACCUUUUUAUGGAUGU	0.826
GAAAUGGCCAGUGGAGGAAUCCCUGCCUUGGCCUUGCCUCCCCUCCUUGCCACCUGCUCCUAGGUAUUUUUUUUUUUAACCACCACGUGAUUCUGGUCGGCACUUCCUCCCCCGACCUGC	3.15
GUUAAAUGUGUGUCAAAUGCUGGAUGUAAUGUUAAACCGUCAUUUAGAAUAGAUGUUAAUUUGUUAUGAUUAAGCUACAAAUAGGUUUCCUUAAACCAGAGAUGCACCGCCCUUGUCUGA	0.544
AUUUAGAAUGUAUUUAGUUAUAGUUAAUGAUCUCAUUCCCGUGUUCCUUUUUCAUUAACGUAGCUUUAAUAGUAUGAAUAAAUAGGAGGAUUGCGCCAGUAGGCAUUGUUACUGAAUCGG	1.04
UUCAGGCACAACUGACUGGUUCACAGCAUUCCUUACAUAGCUAUCUAUCAAAUGCAAGUGUCGUUAAUUUUCAGGAAACUAGCAGGCAGUCAUCCUUAUCCUGUAGCCCAAUUGGAGAUU	1.53

Excerpt of the above (series 3):
Change	normalised enrichment score
R5K	0.173
E8A	0.428
K6A	0.867
